Measured values gathered from unrelated publications.
Every numbered part comes from another study and shows a few of its results, in no order. Positions count from the first letter of the parent shown.

Sample 1
Target: Sal-like protein 4, full length isoform A (SALL4, Homo sapiens, UniProt Q9UJQ4, residues 1-1053)
Sequence of UniProt Q9UJQ4 (whole entry, looked up): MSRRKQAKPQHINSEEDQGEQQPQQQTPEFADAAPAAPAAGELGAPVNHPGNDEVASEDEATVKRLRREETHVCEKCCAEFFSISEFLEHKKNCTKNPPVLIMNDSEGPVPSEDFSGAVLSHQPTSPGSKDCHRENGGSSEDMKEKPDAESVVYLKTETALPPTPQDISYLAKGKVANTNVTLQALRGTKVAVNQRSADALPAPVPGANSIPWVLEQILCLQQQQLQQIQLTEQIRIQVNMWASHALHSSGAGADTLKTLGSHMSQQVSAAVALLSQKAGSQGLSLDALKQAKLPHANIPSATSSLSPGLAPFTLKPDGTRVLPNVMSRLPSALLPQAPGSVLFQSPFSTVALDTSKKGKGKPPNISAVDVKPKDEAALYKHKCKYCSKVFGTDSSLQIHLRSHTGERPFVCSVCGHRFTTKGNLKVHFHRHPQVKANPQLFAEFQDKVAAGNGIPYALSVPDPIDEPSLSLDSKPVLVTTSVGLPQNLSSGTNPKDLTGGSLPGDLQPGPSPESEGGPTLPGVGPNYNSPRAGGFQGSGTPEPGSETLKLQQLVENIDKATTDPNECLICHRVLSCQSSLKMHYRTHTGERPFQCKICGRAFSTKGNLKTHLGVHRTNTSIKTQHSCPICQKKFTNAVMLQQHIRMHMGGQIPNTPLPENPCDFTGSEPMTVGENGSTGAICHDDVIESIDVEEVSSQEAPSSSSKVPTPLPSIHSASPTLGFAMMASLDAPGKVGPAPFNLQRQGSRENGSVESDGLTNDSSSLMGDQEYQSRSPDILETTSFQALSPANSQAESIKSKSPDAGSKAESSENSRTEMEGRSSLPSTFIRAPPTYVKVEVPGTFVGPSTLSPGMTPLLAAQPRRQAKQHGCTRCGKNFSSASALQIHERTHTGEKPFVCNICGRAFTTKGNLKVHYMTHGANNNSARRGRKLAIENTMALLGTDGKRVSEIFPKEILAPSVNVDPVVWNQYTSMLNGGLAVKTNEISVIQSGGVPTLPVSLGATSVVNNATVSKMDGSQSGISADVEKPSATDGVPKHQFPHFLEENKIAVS
Technique: universal PBM
Molecule type: double-stranded DNA, one strand shown
Matrix: in vitro
Tested at: 600 nM
Setting: 8-mer, flanks averaged, mean of replicates
Reading: higher = stronger binding
Strand	E-score
CGCTGCCG	-0.317
GGTGAGAA	0.0344
GTCTATAA	0.247
CCGTCAGC	-0.244
GCCCGGAC	-0.36
CAGCAGGC	-0.192
CCTGCAGG	-0.339
GATGGCAA	0.0884
GATCCGAC	-0.146
ACACCCAC	-0.21
CCGGTAAG	-0.195
CTGTCCCA	-0.096
CCAAAATC	0.017
CAATCGTG	0.0156
CCCCAACC	-0.26
ATACTGGA	0.209
ACTGATTA	0.232
CCCACGAA	-0.079

Sample 2
Target: CCND1, cyclin fold, Cln2 fusion (human)
Technique: yeast growth competition, sequencing
Matrix: yeast
Setting: weak parent motif
Reference: not given
Reading: higher = stronger binding
Starting sequence: MASTL docking peptide (human); PMIAKNLMCELDE
Change	normalised enrichment score
K5A	0.196
M8P	0.101
I3H	0.0152
A4P	0.13
D12L	-0.123
D12E	0.126
M8G	-0.064

Sample 3
Target: Interferon regulatory factor 7, full length, phosphomimetic (IRF7, Homo sapiens, UniProt Q92985, residues 1-503, S471D/S472D/S475D/S476D/S477D/S483D/S484D/S487D)
Technique: protein-binding microarray
Molecule type: double-stranded DNA, one strand shown
Matrix: in vitro
Tested at: 2200 nM top
Setting: 60-bp whole probe
With: salmon DNA 0.4 mg/ml
Reference: random background probes
Reading: higher = stronger binding
Shared flanks, not repeated: GCCTAGCAC … GTCTTGATTCGCTTGACGCTGCTG
Target sequence (chain): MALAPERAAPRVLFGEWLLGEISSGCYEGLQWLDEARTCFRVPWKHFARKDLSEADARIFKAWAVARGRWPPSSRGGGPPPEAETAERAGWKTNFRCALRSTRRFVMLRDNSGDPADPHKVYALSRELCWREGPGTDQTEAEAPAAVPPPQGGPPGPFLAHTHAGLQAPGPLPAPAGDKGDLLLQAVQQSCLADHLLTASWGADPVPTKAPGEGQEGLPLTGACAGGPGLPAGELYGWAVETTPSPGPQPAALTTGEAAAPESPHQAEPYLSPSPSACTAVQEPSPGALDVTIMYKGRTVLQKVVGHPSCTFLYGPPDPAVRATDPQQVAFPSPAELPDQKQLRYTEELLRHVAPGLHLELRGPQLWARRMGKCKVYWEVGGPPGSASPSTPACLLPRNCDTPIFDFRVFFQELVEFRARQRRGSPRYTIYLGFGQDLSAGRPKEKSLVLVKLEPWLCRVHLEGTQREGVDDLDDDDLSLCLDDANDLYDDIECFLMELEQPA
Strand	fitted relative affinity
TCAAAACTCGTGTTTTTCACTGTGCTA	0.712 z-score
GCACTGTGCCTGCTGCCCTTGTGCTAG	0.373 z-score
GATGGTTTCGACTATCGGGACGTGCTA	3.37 z-score
TCATCATTGCCTATTTTTCCGTGCTAG	1.7 z-score
ACACGGCTCTAAACTCATGTAGTGCTA	0.0553 z-score
TTAGGTATCGGGTATCGGTCAGTGCTA	0.342 z-score
TTAGGACTGCTTTTCATTTAGTGCTAG	1.48 z-score
GACAGTATCGGTATCGGGACGTGCTAG	0.626 z-score
TCCATTTCTGTTTTTGCTTTGTGCTAG	5.48 z-score
GACGGTATCGTTATCCTGACGTGCTAG	0.924 z-score
GACGGTCTCGGTTTCGAGACGTGCTAG	2.88 z-score
GAACATACTAATTTCCATTTGTGCTAG	2.43 z-score

Other studies, line by line
Substance	target	test	system	conditions	how to read	endpoint	value
PhoQ, residues 284 288 289 292 302 303 SSTLLI	PhoP, residues 12 14 15 18 19 QWHVF (Escherichia coli, UniProt P23836)	Sort-seq, refers to: YFP reporter	E. coli	PhoQ-PhoP variant library, with: 10 µM Mg2+	reference: high Mg2+ state, higher = stronger signaling	fold induction	6.13
